Experimental data collected from several papers.
Lines come from different studies, so protocols differ. Values joined by “and” are separate records of one study, mostly repeats; a detail may differ. ± marks the error that the study gave.
APP: Amyloid-beta precursor protein (APP, Homo sapiens, UniProt P05067)
APP amyloid-beta insoluble aggregates: Amyloid-beta precursor protein, amyloid-beta insoluble aggregates (APP, Homo sapiens, UniProt P05067)
APP amyloid-beta fibrils: Amyloid-beta precursor protein, amyloid-beta fibrils (APP, Homo sapiens, UniProt P05067)

Compound	target	assay	test system	conditions	how to read	measurement	result
CC[C@H](C)[C@H](NC(=O)[C@@H](NC(=O)[C@@H](NC(=O)[C@@H](NC(=O)[C@@H](N)CCCCN)C(C)C)C(C)C)C(C)C)C(=O)N[C@H](C(N)=O)[C@@H](C)O	APP	fibril formation, ThT fluorescence	–	1-fold of peptide, pH 7.4, room temperature, added: amyloid-beta 10 µM	baseline: untreated	aggregation half-time	114 ± 15%
O=C1c2sc(-c3ccc(N4CCC(CO)CC4)nc3F)nc2CCN1c1cccnc1	APP amyloid-beta insoluble aggregates	radioligand filter binding	AD brain insoluble fraction	175 nM	higher = more binding	specific binding	1210 a.u. and 1500 a.u.
CC[C@H](C)[C@H](NC(=O)[C@@H](NC(=O)[C@H](CCCCN)NC(=O)[C@@H](NC(=O)CNC(=O)[C@@H](N)CCCNC(=N)N)[C@@H](C)O)C(C)C)C(=O)N[C@@H](CC(C)C)C(=O)N[C@@H](Cc1c[nH]cn1)C(=O)N[C@@H](CC(C)C)C(N)=O	APP	fibril formation, ThT fluorescence	–	1-fold of peptide, pH 7.4, room temperature, added: amyloid-beta 10 µM	baseline: untreated	aggregation half-time	106 ± 10%
CC(C)C[C@H](NC(=O)CCS[C@H]1O[C@H](CO)[C@@H](O)[C@H](O)[C@H]1O)C(=O)N1CCC[C@H]1C(=O)N[C@@H](Cc1ccccc1)C(=O)N[C@@H](Cc1ccccc1)C(=O)N[C@@H](CC(=O)O)C(=O)N[C@@H](CC(=O)O)C(=O)N[C@@H](C)C(=O)N[C@@H](Cc1c[nH]cn1)C(=O)N[C@@H](CCCCN)C(N)=O	Amyloid-beta precursor protein, fibril (APP, Homo sapiens, UniProt P05067)	amyloid aggregation, inhibitor	–	10 µM	–	inhibition	73%
O=C1c2sc(-c3ccc(N4CCC(F)C4)nc3F)nc2CCN1c1cccnc1 (stereo not drawn)	APP amyloid-beta insoluble aggregates	radioligand filter binding	AD brain insoluble fraction	150 nM	higher = more binding	specific binding	782 a.u. and 460 a.u.
CCCCCCCCCCCCCCCC(=O)OCC(CSC[C@H](N)C(=O)N[C@@H](CO)C(=O)N[C@@H](CCCCN)C(=O)N[C@@H](CCCCN)C(=O)N[C@@H](CCCCN)C(=O)N[C@@H](CCCCN)C(=O)NCCCCCC(=O)N[C@@H](CCCCN)C(=O)N[C@@H](CC(C)C)C(=O)N[C@H](C(=O)N[C@@H](Cc1ccccc1)C(=O)N[C@@H](Cc1ccccc1)C(=O)N[C@@H](Cc1ccc2ccccc2c1)C(=O)O)C(C)C)OC(=O)CCCCCCCCCCCCCCC (stereo partly drawn)	Amyloid-beta precursor protein, fibrillar amyloid-beta (APP, Homo sapiens, UniProt P05067)	TEM	–	2.0 eq, 3 h, fibril 1, added: APP 20 µM	–	fibril diameter	43.7 nm
CSCC[C@H](NC(=O)[C@@H](CCCCN)NC(=O)[C@H](CC(C)C)NC(=O)[C@@H](CC(N)=O)NC(=O)[C@H](CCSC)NC(=O)[C@H](NC(=O)[C@H](Cc1c[nH]c2ccccc12)NC(=O)CNC(=O)[C@H](CO)NC(=O)[C@H](Cc1ccc(O)cc1)NC(=O)[C@H](CCC(=O)O)NC(=O)[C@H](CC(N)=O)NC(=O)[C@H](CCSC)NC(=O)[C@@H](Cc1c[nH]c2ccccc12)NC(=O)[C@H](CO)NC(=O)[C@@H](CC(C)C)NC(=O)[C@H](CC(N)=O)NC(=O)[C@@H](CCSC)NC(=O)[C@H](CCC(=O)O)NC(=O)CNC(=O)[C@@H](N)CCCNC(=N)N)[C@H](C)O)C(=O)NCC(=O)N[C@@H](CCCNC(=N)N)C(=O)O	APP	self-aggregation, inhibitor, thioflavin T fluorescence	–	10 µM APP to compound ratio 1:10, compound heated at 60 °C, added: thioflavin T 22 µM	–	inhibition	~50%
CC[C@H](C)[C@H](NC(=O)[C@@H](NC(=O)[C@@H](NC(=O)[C@@H](NC(=O)[C@H](CCCCN)NC(=O)[C@H](CCC(=O)O)NC(=O)[C@H](C)N)C(C)C)C(C)C)C(C)C)C(=O)N[C@H](C(=O)N[C@@H](CCCCN)C(N)=O)[C@@H](C)O	APP	fibril formation, ThT fluorescence	–	10 µM, 42 h, pH 7.4, equimolar to peptide, added: amyloid-beta 1-42 10 µM	baseline: untreated amyloid-beta	ThT fluorescence	61 ± 13%
CN1CCN(c2ccc(/C=C/c3cc(=O)cc(/C=C/c4ccc(N5CCN(C)CC5)cc4)o3)cc2)CC1	Amyloid-beta precursor protein, amyloid-beta aggregates (APP, Homo sapiens, UniProt P05067)	TEM and dot blot	–	2 µM, added: amyloid beta 20 µM	–	amyloid beta aggregation	no effect
CCC1CC2C(C)=CC3C(=O)CCCC3C=CC(C)=CC2C(=O)O1 (stereo not drawn)	APP amyloid-beta fibrils	thioflavin T, refers to: Aβ42 pre-formed fibrils	–	50 µM	–	fibril dissociation	20.3%
CC[C@H](C)[C@H](NC(=O)[C@H](CCC(N)=O)NC(=O)[C@@H](NC(=O)[C@@H]1CCCN1[C@@H]1CN(C(=O)[C@H](CCCCN)NC(=O)[C@H](CC(N)=O)NC(=O)[C@@H](NC(=O)[C@@H](NC(=O)[C@H](CCC(N)=O)NC(=O)[C@@H](N)C(C)C)[C@@H](C)CC)[C@@H](C)CC)CC[C@H]1NS(=O)(=O)c1ccc(C)cc1)C(C)C)C(=O)N[C@H](C(=O)N[C@@H](Cc1ccc(O)cc1)C(=O)N[C@@H](CCCCN)C(N)=O)C(C)C	APP	fibril formation, ThT fluorescence	–	1-fold of peptide, pH 7.4, room temperature, added: amyloid-beta 10 µM	baseline: untreated	aggregation half-time	127 ± 15%
COc1cc(/C=C/C(=O)C2=C(/C=C/c3ccc(O)c(OC)c3)NC(=S)NC2[c-]2cccc2)ccc1O.[Fe+2].c1cc[cH-]c1 (racemic)	Amyloid-beta precursor protein, Aβ1-40 fibrils (APP, Homo sapiens, UniProt P05067)	single-molecule localization microscopy	–	20 µM, 1 h, room temperature, added: amyloid beta 20 µM	–	fibril length	1.28 ± 0.64 µm
Clc1ccc2c(c1)N(CCCN1CCN(CCn3cc(CN4CCCNCCN(Cc5cn(CCN6CCN(CCCN7c8ccccc8Sc8ccc(Cl)cc87)CC6)nn5)CCCNCC4)nn3)CC1)c1ccccc1S2	APP	amyloid fibril formation, inhibitor, thioflavin T	–	added: 2.5 µM Aβ42	–	lowest significant inhibitory concentration	> 3 µM
CC[C@H](C)[C@H](NC(=O)[C@@H](NC(=O)[C@H](CCCCN)NC(=O)[C@@H](N)[C@@H](C)O)C(C)C)C(=O)N[C@@H](CC(C)C)C(=O)N[C@@H](Cc1c[nH]cn1)C(N)=O	APP	fibril formation, ThT fluorescence	–	1-fold of peptide, pH 7.4, room temperature, added: amyloid-beta 10 µM	baseline: untreated	aggregation half-time	84 ± 8%
CCC1CC2C(C)=CC3C(=O)C=CCC3C=CC(C)=CC2C(=O)O1 (stereo not drawn)	APP amyloid-beta fibrils	thioflavin T, refers to: Aβ42 pre-formed fibrils	–	500 µM	–	fibril dissociation	29.8%

For quick reference, copied from above:
Compound	target	assay	test system	conditions	how to read	measurement	result
CC[C@H](C)[C@H](NC(=O)[C@@H](NC(=O)[C@@H](NC(=O)[C@@H](NC(=O)[C@@H](N)CCCCN)C(C)C)C(C)C)C(C)C)C(=O)N[C@H](C(N)=O)[C@@H](C)O	APP	fibril formation, ThT fluorescence	–	1-fold of peptide, pH 7.4, room temperature, added: amyloid-beta 10 µM	baseline: untreated	aggregation half-time	114 ± 15%
